Experimental data gathered from unrelated publications.
Each numbered part is a random draw from the data of one study; scales do not carry over between parts. Changes are numbered by the printed parent chain.
Sequence of UniProt P53671 (whole entry, looked up): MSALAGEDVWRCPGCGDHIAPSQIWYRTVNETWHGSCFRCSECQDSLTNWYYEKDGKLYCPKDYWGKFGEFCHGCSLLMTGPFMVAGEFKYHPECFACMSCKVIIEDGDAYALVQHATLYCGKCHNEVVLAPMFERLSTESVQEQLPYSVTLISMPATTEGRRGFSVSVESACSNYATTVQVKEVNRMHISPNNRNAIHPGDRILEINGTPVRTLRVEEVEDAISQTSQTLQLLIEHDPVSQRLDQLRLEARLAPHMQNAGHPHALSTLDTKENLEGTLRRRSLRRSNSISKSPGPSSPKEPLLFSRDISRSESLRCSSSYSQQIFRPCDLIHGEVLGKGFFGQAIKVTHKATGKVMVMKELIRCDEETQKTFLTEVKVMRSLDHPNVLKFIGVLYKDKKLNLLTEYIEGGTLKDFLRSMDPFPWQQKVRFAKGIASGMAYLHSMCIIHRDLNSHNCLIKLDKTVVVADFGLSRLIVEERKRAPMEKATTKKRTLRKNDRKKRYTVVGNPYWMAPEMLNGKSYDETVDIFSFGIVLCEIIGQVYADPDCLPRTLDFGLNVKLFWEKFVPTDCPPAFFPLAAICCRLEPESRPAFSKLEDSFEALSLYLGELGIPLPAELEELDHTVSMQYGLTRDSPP
Sequence of UniProt P34947 (whole entry, looked up): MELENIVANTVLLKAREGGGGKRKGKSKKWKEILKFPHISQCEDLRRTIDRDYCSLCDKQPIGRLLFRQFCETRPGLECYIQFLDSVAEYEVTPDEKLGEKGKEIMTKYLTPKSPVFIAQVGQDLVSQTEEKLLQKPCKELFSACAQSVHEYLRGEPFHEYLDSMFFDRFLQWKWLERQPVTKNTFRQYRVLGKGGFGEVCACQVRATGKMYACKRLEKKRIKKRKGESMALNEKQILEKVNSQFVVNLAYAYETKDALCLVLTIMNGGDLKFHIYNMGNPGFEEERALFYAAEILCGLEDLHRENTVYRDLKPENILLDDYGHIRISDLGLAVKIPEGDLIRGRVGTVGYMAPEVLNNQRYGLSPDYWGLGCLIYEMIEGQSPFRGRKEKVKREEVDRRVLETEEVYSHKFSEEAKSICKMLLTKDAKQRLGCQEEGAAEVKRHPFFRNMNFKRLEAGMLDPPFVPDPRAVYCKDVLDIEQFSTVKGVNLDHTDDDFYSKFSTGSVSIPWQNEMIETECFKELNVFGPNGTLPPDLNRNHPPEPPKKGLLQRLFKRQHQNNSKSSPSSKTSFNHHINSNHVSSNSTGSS

Block 1 — target: CCNB2, cyclin fold, Cln2 fusion (human); technique: yeast growth competition, sequencing; matrix: yeast; notes: strong parent motif; relative to: not given; reading: higher = stronger binding
Parent: viral docking peptide; YKVKRRLVFGADD; partner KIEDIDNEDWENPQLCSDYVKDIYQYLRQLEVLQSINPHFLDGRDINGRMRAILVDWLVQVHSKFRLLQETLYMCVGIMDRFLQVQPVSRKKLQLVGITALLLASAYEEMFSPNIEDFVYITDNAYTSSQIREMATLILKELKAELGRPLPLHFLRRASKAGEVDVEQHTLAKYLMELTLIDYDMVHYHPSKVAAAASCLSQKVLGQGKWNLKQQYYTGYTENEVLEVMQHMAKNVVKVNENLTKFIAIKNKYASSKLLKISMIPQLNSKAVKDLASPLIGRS
Change | normalised enrichment score
YEVKRRLVFGADD [K2E] | 2.61
YKVHRRLVFGADD [K4H] | 0.673
YPVKRRLVFGADD [K2P] | 2.95
YKVKRRCVFGADD [L7C] | -0.0457
YKVKRRLVFGAND [D12N] | 1.45
YKVKRQLVFGADD [R6Q] | 0.906
YKIKRRLVFGADD [V3I] | 2.1
YKVKRRLVFPADD [G10P] | 1.68

Block 2 — target: inorganic phosphate, free oxyanion; technique: microfluidic competitive inhibition; matrix: in vitro, cell-free expressed; tested at: not given; reading: lower = stronger binding
Notes: derived from inhibition constants, unchanged parent 615000 nM
Parent: PafA, mature enzyme, eGFP fusion (Elizabethkingia meningoseptica, UniProt Q9KJX5); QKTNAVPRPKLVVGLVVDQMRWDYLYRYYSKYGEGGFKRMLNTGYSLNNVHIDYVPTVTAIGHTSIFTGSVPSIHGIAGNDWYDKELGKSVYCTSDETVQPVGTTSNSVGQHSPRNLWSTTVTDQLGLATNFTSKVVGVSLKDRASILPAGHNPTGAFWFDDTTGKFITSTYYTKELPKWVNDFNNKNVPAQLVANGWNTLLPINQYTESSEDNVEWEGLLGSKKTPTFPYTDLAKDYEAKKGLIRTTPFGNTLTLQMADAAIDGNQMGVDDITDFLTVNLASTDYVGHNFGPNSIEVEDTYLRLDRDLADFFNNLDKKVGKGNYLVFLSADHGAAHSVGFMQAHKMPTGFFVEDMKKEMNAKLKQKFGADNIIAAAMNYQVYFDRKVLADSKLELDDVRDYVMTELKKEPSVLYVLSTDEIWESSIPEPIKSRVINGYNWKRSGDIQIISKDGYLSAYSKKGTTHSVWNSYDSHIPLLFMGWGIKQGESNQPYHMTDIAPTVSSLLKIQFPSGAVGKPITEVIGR
Change | phosphate dissociation constant [µM]
N214G | 558
H475V | 506
N437V | 406
V320A | 551
G14A | 636
V435G | 524
S338G | 464
D398G | 667

Single results of other studies
SMILES | target | test | setting | scale | measurement | result
COC[C@H]1OC(=O)c2coc3c2[C@@]1(C)C1=C(C3=O)[C@@H]2CCC(=O)[C@@]2(C)C[C@H]1OC(C)=O | GRK5 (Homo sapiens, UniProt P34947) | enzyme activity, inhibitor | 0.5 µM | relative to: control | remaining activity | 107%
N#CC1(c2ccccn2)CCN(Cc2cc(C(=O)O)c(=O)n3ccccc23)CC1 | LIM domain kinase 2 (LIMK2, Homo sapiens, UniProt P53671) | cell-free assay, competition with immobilised ligand | 1 µM | – | remaining binding | 100%

Excerpt of the above (block 1):
Change | normalised enrichment score
YKVKRQLVFGADD [R6Q] | 0.906
YKIKRRLVFGADD [V3I] | 2.1
